Experimental data from different studies.
Numbered parts are unrelated; each lists some results of a single study. Positions count from the first letter of the parent shown.

Block 1
Target: Sal-like protein 4, full length isoform B (SALL4, Homo sapiens, UniProt Q9UJQ4-2, residues 1-616)
Method: universal PBM
Molecule type: double-stranded DNA, one strand shown
Sample: in vitro
Concentration: not given
Setting: 8-mer, flanks averaged, mean of replicates
Direction: higher = stronger binding
Quantity: E-score
CACGAGAC: -0.212
ATTCGACC: -0.0856
GACCGGCA: -0.31
CTCATTTC: 0.137
CAGATCAG: -0.0102
CCCTAGTC: -0.153
ATTGTAGC: 0.135
AACACCGC: -0.185
AGAATGTA: 0.231
ACGTATTA: 0.322
CAAAACAG: 0.136
GCGCGTCC: -0.364
CCGAAATA: 0.322
CAATGTTC: -0.0452
ACATGAGA: 0.191
AAGACAAA: 0.188
GAGAGTAA: 0.0451
AGGTTCGC: -0.248
AAATGGGT: 0.183
AGAGTATG: 0.0382
AATAGCAC: -0.0499
ATCTCTTG: -0.116
CACTCGGG: -0.281
CATCCGAC: -0.159
GTTACTGA: 0.0777

Block 2
Target: RING finger protein unkempt homolog, zinc fingers 1-6, GST-SBP tag (UNK, Homo sapiens, UniProt Q9C0B0, residues 30-357)
Method: RNA Bind-n-Seq
Molecule type: RNA
Sample: in vitro
Concentration: not given
Setting: RNA with constant flanks, human and mouse sites, ends assumed
Reference: input RNA pool
Direction: higher = stronger binding
Quantity: bound/input enrichment
Shared flanks, not repeated: GGGAGUUCUACAGUCCGACGAUC … CAACAGAGGAUUGAGCAUCA
Residues (chain): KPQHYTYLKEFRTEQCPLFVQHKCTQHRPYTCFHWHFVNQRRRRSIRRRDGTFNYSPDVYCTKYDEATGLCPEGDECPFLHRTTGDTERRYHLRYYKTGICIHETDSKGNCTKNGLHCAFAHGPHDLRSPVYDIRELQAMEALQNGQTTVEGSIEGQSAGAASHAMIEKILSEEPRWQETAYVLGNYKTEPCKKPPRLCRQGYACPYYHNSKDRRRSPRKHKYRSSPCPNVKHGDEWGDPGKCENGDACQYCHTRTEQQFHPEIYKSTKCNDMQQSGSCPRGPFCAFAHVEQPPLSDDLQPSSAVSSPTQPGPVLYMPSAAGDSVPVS
AGGACCUAUUCCAAUAGGCUCUUGGUGUUUCCCAUAUCAAGAUUUCUGCUAGCUAAUGCAUAGAGGGAAUACUGUCUAAAAAUAGACCCUUUCUUCCCAAAGGUUGGGAGGUGGGACCUG: 0.222 ratio
GCCAGCAGCACUCGGAACAGAUGUAUAGUGAUCUGAUUAAAAAGAUAACUAAUCACUUAGAGAGAGUCUCAAAGGAGCUGCAGGCCAGCCCUCCAGAUCUCUAUAUUGAAAGAUUUAAUA: 0.682 ratio
UGCUCUUACUUGAUUUGCCAAAUGCCUCCUGCUUCUCGUUAUAGGACUGAGUGAGGUCCUCAUAGCUCUGUGCUCUGGGCAGCUCUGAGCUCUCAGCCCUGUUGCUUUCAAUGUCAGUCA: 0.265 ratio
UUUCCUGGGAACAGCACCCAGUACAACAUCCUGGAAGGGUUGGAAAAGCUCAAACAUCUAGACUUUCUGAAGCAGCCACUGGCCACCCAAAAGGAUCUCACUGGCCAGGUGCCCACUCCU: 0.244 ratio
UUUUCAUUCAACCCCAUGCUGGAUAAAGAAGAAAGAGAGCAAGGCUGGGUGCUGAUCGAUCUUAGUGAAGAAUACACGCGGAUGGGCCUCCCUAAUCAUUACUGGCAGCUCAGCGAUGUG: 0.17 ratio
UUUAAGACUUUAUAUUGCUUUUCAAACAAAGAAAGCCCUAACCAAAACAAUACUACCCACUUAGAUAUUGCUGCAGUUCAAGGUUUUUCAGUCAUCUUGGACUUCUUGUAUUCUGGUAAC: 3 ratio
GUACUGUCUCUUUUGGAAAAGUUCUUGAUCCCCAAUGCUUCACAAGCAGAGAGCAAAGUCUUCUAUUUGAAAAUGAAAGGAGAUUACUACCGUUACUUGGCUGAGGUUGCCGCUGGUGAU: 0.119 ratio
UCUGGUAUUACCCUCACCUGCAUUGGUUUUGUUUUUUGGGGUUUUUGUUGUUUGUUUGUUUUUAGAUUCACAGAACAUGAGAAUCCUUUUUGACAAGCCUUGGAUAGCUGGCUCUCUUCU: 0.305 ratio
CUCUUCUCCCAAUUUAAGUGGUUCUGUACCACAAAGAAUCUUGAUACAUUUUCACAAAUAACUGAUUGGGCUUCAUACUUUAUGCUGGCUGUGUCCUGAUACCCAUGUACUUAUGGUAAG: 0.376 ratio
UGGGUGUCGCUGGUGAGUAAGAACUAUGAGAUUGAGCGGACGAUUGUCCAGCUGGAGAACGAGAUCUAUCAGAUCAAGCAGCAGCACGGGGAGGCCAACAAGGAAAACAUCCGCCAAGAC: 0.22 ratio
AAGGUCUUGGGCACUCGGAAGUUGAUGCAUGUAGCCUAUGAAGAGUUUGAAAAGGUCAUGGUGGCUUGCUUCGAAGUCUUCCAGACGUGGGACGACGAGUACGAGAAGCUCCAGGUGCUG: 0.0904 ratio

Block 3
Target: RNA binding protein fox-1 homolog 2, RRM domain, GST-SBP tag (RBFOX2, Homo sapiens, UniProt O43251-10, residues 100-194)
Method: RNA Bind-n-Seq
Molecule type: RNA
Sample: in vitro
Concentration: 365 nM
Setting: natural RNA segment, single round, ends assumed
Reference: no-protein control
Direction: higher = stronger binding
Quantity: RBNS enrichment (R)
Shared flanks, not repeated: GGGAGUUCUACAGUCCGACGAUC … UGGAAUUCUCGGGUGCCAA
Construct (chain): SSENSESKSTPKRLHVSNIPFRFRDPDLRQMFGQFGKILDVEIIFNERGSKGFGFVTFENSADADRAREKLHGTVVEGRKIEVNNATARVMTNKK
UAAGGAACUGCCGACUAGGACUGAUGAUGCAUUUUAGCUUUGAGCUUUUGGGGGUUAUUCUACCAACAAACAGUCCAUUGGAAAGAAAACAGUCCCUGGAAUUAACAGAU: 0.379
AGCAGAGUGGACCAACCGUUCAAUGUUUUACAAGCAAAACAUACACUAAGCAUGGUCUGUAGCUAUUAAAAGCACACAAUCUGAAGGGCUGUAGAUGCACAGUAGUGUUU: 0.915
ACUAACACAGGUCUUCCCUUCCCUCCAACCCCAGGUUUCAGGUCUCAGAGCCAAGCCAGGGUUGGAGAAAACUGCAUUCCUACGAGGGUAAAAGUAGCUGCCCUCUUUGA: 0.504
GCCAUUUCCCUUUGAUGCUUUGGUGGCCUUGCCCCGCUCUGCAGCACAGACAGGCCAGAUGCAUUUGUCCUUUGCCUAGCUACUCCCCAGGUAGAGAGUGCUCCUGGUGG: 0.434
AGAGGUGGACGCGGCCGAGAGCCCUACAGAGAAGCUGGCUGGUAGGACCCGCAGGGACCAGCUGACCAGGCUUGUGCUCAGAGAAGCAGACAAAACAAAGAUUCAAGGUU: 0.432
CACUGAAUCCCGAGGAGAGGCUGAAAAAAUCAGAGUAGAAACCAGCAACAUUUACAAGUGUGUCUGGAGUAAUCCUGUUUCCUCCCAGCUGCAAAGCUUCUCUCAAGUUC: 0.246
CCCAGAAAGAAUACUACCUAAAUGCUGGUUCAUCAGAGAGUAACUGUGAAGAGCAUCUCAGAUAAGGGUUCUUAAAAGGGGGGAUGGGCAGAGUACAGUAGAGGAGGACU: 0.616
UGAGCACAAAAGCCACGUCCCAAGCCACCUGGCCCGAUUCCACAGAUGUAUGUGCGGCCAGUGACUUCCCCAGGAGUGUGGAGGGGGUGGUGAGGAGGAGCACCUGGGCU: 0.566
CAGGGCAGGCUCAGACCACUCGCUUCUUUCAGAUCUUUCUUGCAAUUAUGAUAACAUGAGAUUUGCUGUUGUGCUUUUAGAGAAAAGUCUGGACUCAGCCACAAACUCUA: 0.405
CGAUCAAAAACCCACUGUGAUGUGUUGGUGGCUUUGUCUGAAGCACCAGGGAGUUUGGUGAAGCUAAAGGAGUCAUAGGAGACUUGCAGUGGCUGGAUGUUCUCACGCCU: 0.805
UAUAUAUGUGUAUAAAUAUAUGUAUAUCCCAGCGGCACUUUAUACUGUUCACUGUACAAAAGCUUACAGUUUUCCACAAGGACUUUAAUAACUAGCUGGGAAAAGACGAU: 0.299
CCAAGUGGGAAGAAGGCACACCUAGCUUGGACCCACCCACAAGCUGCACUGUGUGACCUCUCUGUUGCCAGGGUGGGCAAGGGCUCAGCCACUCUGCCCACUAAAGUGCC: 0.285

Block 4
Target: CCNB3, cyclin fold, Cln2 fusion (human)
Method: yeast growth competition, sequencing
Sample: yeast
Setting: weak parent motif
Reference: not given
Direction: higher = stronger binding
Quantity: normalised enrichment score
Starting sequence: RB1 docking peptide (human); PKPLKKLRFDIEG
PKPLKKLRFDIYG [E12Y]: 0.393
LKPLKKLRFDIEG [P1L]: -0.21
PKPLKKLRFDIQG [E12Q]: 0.111
PKPLEKLRFDIEG [K5E]: 0.0874
PKPLKKLPFDIEG [R8P]: 0.398
PSPLKKLRFDIEG [K2S]: 0.161
PKPLKCLRFDIEG [K6C]: 0.205
PKPLKKLRFDIWG [E12W]: 0.0664
PKPLKKLRKDIEG [F9K]: 0.209
PKPLKKLRPDIEG [F9P]: 0.0182
PKPLKKLRRDIEG [F9R]: -0.133
PKPLKKHRFDIEG [L7H]: 0.0458
AKPLKKLRFDIEG [P1A]: 0.504
PKPLKKLRFDIKG [E12K]: -0.492
PKPLKKLRVDIEG [F9V]: 0.604
PKPLKKLRFDTEG [I11T]: -0.483
PKPLRKLRFDIEG [K5R]: -0.0602

Block 5
Target: Histone acetyltransferase KAT6A, both winged helices, GST fusion (KAT6A, Homo sapiens, UniProt Q92794, residues 1-181)
Method: protein binding microarray
Molecule type: double-stranded DNA, one strand shown
Sample: in vitro
Concentration: not given
Setting: 8-mer, flanks averaged, mean of 2 arrays, mostly near background
Reference: not given
Direction: higher = stronger binding
Quantity: E-score
Residues (chain): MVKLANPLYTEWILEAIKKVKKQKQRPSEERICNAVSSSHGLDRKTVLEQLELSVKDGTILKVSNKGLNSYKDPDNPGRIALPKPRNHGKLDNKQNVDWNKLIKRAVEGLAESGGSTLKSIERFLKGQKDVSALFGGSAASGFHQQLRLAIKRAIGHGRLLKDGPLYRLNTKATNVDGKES
ACAACCTA: -0.148
AGAACGAA: -0.153
CCCGTGTC: 0.224
AACGCACA: 0.0169
AACTTCGA: -0.106
ATATCCGA: 0.109
ACTCTTCT: -0.178
CCGAGTGC: 0.201
GAGTTCGC: 0.0383
TACACTGA: -0.117
AGCACATC: -0.0668
CAGGGGAG: -0.118
GCAAGAGC: -0.0571
CGTAAGGC: 0.0716
CCCCGCGA: 0.233
AAGAACAC: 0.0234
ACGCCAGC: 0.0762
TCTTGGAA: -0.0967
AGGCTGGC: -0.196
ACCCTGTC: -0.0408
ATATAAAA: -0.115
GCGCCTTA: 0.209
ATTGGCCG: 0.144
AAAATCAC: -0.133
GCATTTAC: -0.0221
